# Experimental data of several laboratories.
# Lines come from different studies, so protocols differ. ± gives the spread as reported.
Compound,test,system,conditions,logP
C=Cc1c(C)c2cc3nc(c4c5[nH]c(cc6nc(cc1[nH]2)C(C)=C6CC)c(C)c5C(=O)C4)[C@@H](CCC(=O)O)[C@@H]3C,,octanol/water,,0.534
CN1CCN(C(=O)c2ccccc2N(Cc2ccccc2)S(C)(=O)=O)CC1,,octanol/buffer,"pH 11, known kinase inactives set",1.54
O=C(O)CNC(=O)c1ncc(-c2cccc(Cl)c2)cc1O,"shake-flask, potentiometric",1-octanol/water,,3.3
Cc1nc(N)sc1-c1ccnc(Nc2ccc(N(C)C)cc2)n1,,octanol/buffer,pH 11,3.25
O=C(O)CNC(=O)c1ncc(-c2cccc(F)c2)cc1O,"shake-flask, potentiometric",1-octanol/water,,2.8
CCCCC/C=C\C/C=C\CCCCCCCC(=O)O.Cc1cc(/C=C/C#N)cc(C)c1Nc1ccnc(Nc2ccc(C#N)cc2)n1,,octanol/water,room temperature,2.56 ± 0.03
COC(=O)/C=C\C(=O)NNC(=O)CCc1ccccc1C(=O)N[C@H](C)c1cccc2ccccc12,,,,3
C=Cc1c(C)c2cc3nc(c4c5[nH]c(cc6nc(cc1[nH]2)C(C)=C6CC)c(C)c5C(=O)C4)[C@@H](CCC(=O)OC)[C@@H]3C,,octanol/water,,0.801
Cc1ncc2c(c1O)COC2c1ccc(Cl)cc1 (stereo not drawn),"shake-flask, potentiometric",1-octanol/water,,2.2
COC(=O)/C=C/C(=O)NNC(=O)CCc1ccccc1C(=O)N[C@H](C)c1cccc(C2=CCOCC2)c1,,,,2.4
CN1C(C(=O)Nc2cccc(F)n2)=C(O)c2ccccc2S1(=O)=O,"shake-flask, potentiometric",1-octanol/water,,3.1
O=C(Cn1c(NCCO)nc2ccccc21)c1cccc([N+](=O)[O-])c1,,octanol/buffer,"pH 11, known kinase inactives set",1.79
CC(C)CCNC(=O)c1ncccc1O,"shake-flask, potentiometric",1-octanol/water,,3.2
Cc1nc(C)c(-c2ccnc(N)n2)s1,,octanol/buffer,pH 11,1.59
COC(=O)/C=C/C(=O)NNC(=O)CCc1ccccc1C(=O)N[C@H](C)c1cccc(-c2cn[nH]c2)c1,,,,1.6

# Excerpt of the above:
Compound,test,system,conditions,logP
CC(C)CCNC(=O)c1ncccc1O,"shake-flask, potentiometric",1-octanol/water,,3.2
C=Cc1c(C)c2cc3nc(c4c5[nH]c(cc6nc(cc1[nH]2)C(C)=C6CC)c(C)c5C(=O)C4)[C@@H](CCC(=O)O)[C@@H]3C,,octanol/water,,0.534
